Measurements pooled from the literature.
Values joined by “and” are separate records of one study, mostly repeats; a detail may differ.
Target: Tyrosine-protein kinase Mer (MERTK, Homo sapiens, UniProt Q12866)
One construct used (Q12866 21-999): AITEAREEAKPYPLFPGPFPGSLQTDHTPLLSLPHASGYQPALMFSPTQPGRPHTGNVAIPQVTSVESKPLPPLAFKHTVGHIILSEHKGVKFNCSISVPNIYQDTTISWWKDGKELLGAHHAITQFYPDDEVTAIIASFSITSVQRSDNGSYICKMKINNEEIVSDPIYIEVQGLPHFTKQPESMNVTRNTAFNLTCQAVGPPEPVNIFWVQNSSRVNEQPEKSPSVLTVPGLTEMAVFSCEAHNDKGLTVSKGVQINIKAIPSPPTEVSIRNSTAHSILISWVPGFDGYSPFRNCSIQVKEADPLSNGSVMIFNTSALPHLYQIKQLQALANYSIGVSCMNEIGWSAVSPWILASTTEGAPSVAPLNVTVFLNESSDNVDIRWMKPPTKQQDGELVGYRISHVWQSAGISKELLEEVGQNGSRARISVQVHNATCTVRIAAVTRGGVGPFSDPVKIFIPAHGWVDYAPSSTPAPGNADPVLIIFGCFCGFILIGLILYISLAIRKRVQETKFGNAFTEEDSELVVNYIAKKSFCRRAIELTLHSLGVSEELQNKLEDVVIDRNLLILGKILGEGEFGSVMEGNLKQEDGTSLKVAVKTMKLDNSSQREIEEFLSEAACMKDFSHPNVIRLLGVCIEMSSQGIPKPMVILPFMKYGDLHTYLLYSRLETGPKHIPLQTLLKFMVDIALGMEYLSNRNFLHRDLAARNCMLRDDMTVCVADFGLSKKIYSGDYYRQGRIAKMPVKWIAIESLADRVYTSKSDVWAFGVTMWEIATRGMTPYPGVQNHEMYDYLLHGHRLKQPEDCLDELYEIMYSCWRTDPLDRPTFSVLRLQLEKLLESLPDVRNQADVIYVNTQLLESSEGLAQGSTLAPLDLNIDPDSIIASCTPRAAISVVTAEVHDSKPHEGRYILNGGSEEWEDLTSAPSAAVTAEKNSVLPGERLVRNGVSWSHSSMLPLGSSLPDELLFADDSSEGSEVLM

| Structure (SMILES) | test | system | setting | how to read | endpoint | result |
| --- | --- | --- | --- | --- | --- | --- |
| C[C@H]1CN(C(=O)c2cn(-c3ccnc(N)n3)c3cc(C#CC4(O)CCCCC4)ccc23)CCN1 | enzyme activity, inhibitor, FRET |  | 1 µM |  | inhibition | 1% |
| COc1cc(Nc2nc(C)cc(-c3cnn4nc(OC)ccc34)n2)cc(C(F)(F)F)c1 | inhibitor |  | 1 µM | baseline: control | remaining activity | 98% |
| CCn1cc(C(=O)O)c(=O)c2c(N)c(F)c(NC3CCCCC3)cc21 | kinase activity |  | 0.1 µM, added: ATP at Km |  | inhibition | 4% |
| Cc1cc(NC(=O)[C@H](O)c2cc(F)cc(F)c2)ccc1-c1cnc(N)c(C(=O)NC(C)C)c1 | binding, competition with immobilised ligand |  | 10 µM |  | remaining binding | 59% |
| C=CC(=O)Nc1cc(-c2nn(C3CCN(CCNC(=O)[C@H](C)CCC45CC6CC(CC(C6)C4)C5)CC3)c3ncnc(N)c23)ccc1Oc1ccccc1 | inhibitor, KiNativ profiling | biochemical | 2 µM |  | inhibition | -19.5% |
| Cc1ccc(-c2c(/C=C(\C#N)C(=O)NC(C)C)n(CCCO)c3ncnc(N)c23)cc1 | cell-free assay, competition with immobilised ligand |  | 1 µM |  | remaining binding | 100% |
| C=CC(=O)N1CCCC(n2c(=O)c3ncccc3n(Cc3ccc(Oc4ccccc4)cc3)c2=O)C1 (centres unmarked) | cell-free assay, competition with immobilised ligand |  | 1 µM |  | remaining binding | 76% |
| CCN1CCN(Cc2ccc(NC(=O)c3ccc(C)c(NC(=O)c4cncc(-c5cccs5)c4)c3)cc2C(F)(F)F)CC1 | binding, competition with immobilised ligand |  | 1 µM |  | remaining binding | 36% |
| COc1c(OCCCN2CCOCC2)ccc2c1N=C(NC(=O)c1cnc(N)nc1)N1CCN=C21 | kinase activity, inhibitor |  | 1 µM | baseline: untreated control | remaining activity | 101% |
| CN1CC[C@@H](COc2cnc(C#N)cc2-c2ccn3nc(NC(=O)C4CC4)cc3c2)C1 | enzyme activity, inhibitor |  | 1 µM |  | inhibition | 16% |
| O=C(Cc1ccc(OCc2ccccc2)cc1)NC1(C(=O)O)CCN(C(=O)c2ccc(-c3cccc(Cl)c3)cc2)CC1 | enzyme activity, inhibitor |  | 10 µM |  | activity vs control | 106% |
| C=CC(=O)Nc1cccc(-c2cnc3[nH]cc(C(=O)NC(C)(C)C)c3n2)c1 | kinase activity |  | 0.1 µM |  | inhibition | 15% and 12% |
| O=C(Nc1ccc(Oc2ncnc3[nH]cc(-c4ccccc4)c23)c(F)c1)c1c2n(n(-c3cc(F)ccc3F)c1=O)CCCC2 | enzyme activity, inhibitor |  | 0.5 µM |  | inhibition | 96% |
| Cc1cccc(O[C@H]2CCC[C@@H](C(C)CNCc3ccncc3)C2)c1 (relative stereo) | enzyme activity, inhibitor |  | 10 µM |  | inhibition | 3% |
| Cc1cnc2nc1Nc1cccc(c1)COC/C=C/COCc1cc(ccc1OCCN1CCOCC1)N2 | binding |  | 0.1 µM |  | remaining binding | 24% |
| NC(=O)[C@@H](O)C[C@H]1CCc2sc3ncnc(O[C@H]4CC[C@H](N5CCOCC5)CC4)c3c21 | enzyme activity, inhibitor |  | 10 µM |  | inhibition | 42% |
| O=C=[N][Ru-4]123([n]4c5ccc(O)cc5c5c6c(c7cc(F)c[n+]1c7c54)C(=O)NC6=O)[S+]1CC[S+]2CC[S+]3CC1 (centres unmarked) | enzyme activity |  | 100 nM, human enzyme, added: 10 µM ATP | baseline: untreated | remaining activity | 19% |

Excerpt of the above:
| Structure (SMILES) | test | system | setting | how to read | endpoint | result |
| --- | --- | --- | --- | --- | --- | --- |
| CCn1cc(C(=O)O)c(=O)c2c(N)c(F)c(NC3CCCCC3)cc21 | kinase activity |  | 0.1 µM, added: ATP at Km |  | inhibition | 4% |
